Measured values gathered from unrelated publications.
Each numbered part is a random draw from the data of one study; scales do not carry over between parts. Substitutions count along the parent as printed.

Series 1
Target: HLA class I histocompatibility antigen, C alpha chain, allele C*04:01 (Homo sapiens, UniProt P10321)
Effect on: peptide-MHC binding
Molecule type: peptide
Concentration: concentration not given
| Sequence | binding |
| --- | --- |
| MYMALIAAF | inactive |
| MTFPVSLEY | inactive |
| YLRNAGAAM | inactive |
| RQSSGSSSSGF | inactive |

Series 2
Target: Histone acetyltransferase KAT6A, winged helix 1, GST fusion (KAT6A, Homo sapiens, UniProt Q92794, residues 1-85)
Method: protein binding microarray
Molecule type: double-stranded DNA, one strand shown
Medium: in vitro
Concentration: not given
Notes: 8-mer, flanks averaged, mean of 2 arrays, mostly near background
Relative to: not given
Direction: higher = stronger binding
Residues (chain): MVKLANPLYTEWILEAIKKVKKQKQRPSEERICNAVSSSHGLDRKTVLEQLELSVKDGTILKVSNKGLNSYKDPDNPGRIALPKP
| Sequence | E-score |
| --- | --- |
| CAATCTGG | -0.242 |
| CTAACTAG | 0.00014 |
| CAACATCC | 0.0979 |
| AGACGTGG | -0.137 |
| CACAAGTG | -0.157 |
| GCGCAGAA | 0.152 |
| CTAAAAAC | 0.057 |
| CATTATCG | -0.0127 |

Series 3
Target: CCND1, cyclin fold, Cln2 fusion (human)
Method: yeast growth competition, sequencing
Medium: yeast
Notes: strong parent motif
Relative to: not given
Direction: higher = stronger binding
Starting sequence: viral docking peptide; YKVKRRLVFGADD; partner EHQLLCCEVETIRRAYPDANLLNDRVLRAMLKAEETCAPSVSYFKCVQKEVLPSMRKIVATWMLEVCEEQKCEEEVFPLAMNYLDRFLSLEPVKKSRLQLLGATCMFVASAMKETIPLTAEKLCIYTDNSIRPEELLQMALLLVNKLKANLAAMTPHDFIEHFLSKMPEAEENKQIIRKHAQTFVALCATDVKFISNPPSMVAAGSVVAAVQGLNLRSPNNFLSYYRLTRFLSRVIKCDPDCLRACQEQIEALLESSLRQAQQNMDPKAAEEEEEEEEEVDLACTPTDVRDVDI
| Change | normalised enrichment score |
| --- | --- |
| K2M | 1.82 |
| V3P | 0.728 |
| R6G | -0.179 |
| K4M | 0.22 |
| G10W | 0.518 |
| D12N | 1.48 |
| G10R | 0.805 |
| D12H | 0.594 |
| R6Y | 0.522 |
| F9V | -0.0538 |
| V8G | 0.106 |
| V3H | 0.175 |
| V8S | 4.97 |
| K2H | 2.08 |

Series 4
Target: RNA binding protein fox-1 homolog 2, RRM domain, GST-SBP tag (RBFOX2, Homo sapiens, UniProt O43251-10, residues 100-194)
Method: RNA Bind-n-Seq
Molecule type: RNA
Medium: in vitro
Concentration: 365 nM
Notes: natural RNA segment, single round, ends assumed
Relative to: no-protein control
Direction: higher = stronger binding
Constant ends, left off below: GGGAGUUCUACAGUCCGACGAUC … UGGAAUUCUCGGGUGCCAA
| Sequence | RBNS enrichment (R) |
| --- | --- |
| AACCAUAAGACUCUAGUCAAAAGCACUCGUGCAGAUAUGCUGCAUAUGAGUAAGAAAUUGCAAUUUUGUAAACAUUCCUCGACUUGGUGGGGAGGAAUAAUUUUAUAAUU | 0.851 |
| AUUCGCCCUCACAGAGGGCGUGUGGUCCACGAAGCUGUCUACAGGGGAGGCUGCAGGCAGGAAGCAGGCGUGGGGCAGAAGACUGGGGACCCUUGAAGCGUCCAACUCAU | 0.401 |
| AAAGACACUUAAGAAGAUGAAAUAAUAUUCAAAUUUCAUUUUUUCCUUUUUCCAUUUAUCUGUGGAAACCAACAGAUAUUGCUCUAUAUUUUUUGUAUUAGUAUGGUUUG | 0.445 |
| UGAAUUUGAGCACAGUCCAGAAAUGGAGACAUCCCACCCCCAGUUGAAUAAUGGCCCAUUCAUGCCAACCUUGCCAACACGGAGAGGGCAGAGAUGCACUAGAAGACCUU | 0.366 |
| GAUGCUUUUCUUCUAUAUUCUUACUCUGUACAAAUAAAGAAGUUGCUUGUUGUUUGAGAAGUUUAACCCCGUUGCUUGUUGUUCUGCAGCCCUGUCUACUUGGGCACCCC | 0.725 |
| UCUAUGAUCUGAAGAACAAAAAAAAAAGCUUUUUGACUUGUAUAAGAUUUAUGUCUACUGUAAACAUUGCGGAAUUUUUUUUUGUUCUUGUUUUAUUGACAAUGCUAUUG | 0.644 |
| UCCACAGAAGCUGGGGGAGAGUCUGCAGCAGGCCUGAGCCUGCUGAUGUCAGUGCUGACUGAGUCCAUGCUAACUGAGAUCUGUAGGCAGAGCUCUGCCCUGUAGCUCCC | 0.772 |
| CUCCCUCGUGGGCCAGUGAAAAUAGACUGUAGGUCCUCAGAGCCUUCAGAGAUGAUCCAGCCCAAACCCCAUUUUGCAGAGAGGAAAACUGAGGCCUAGAAGGGAGGAGU | 0.426 |
